Experimental data collected from several papers.
A part holds a random share of what one study measured. Several values in a cell are separate wells, animals, samples, runs or records.

Study 1
Target: Replicase polyprotein 1ab, polymerase (rep, Severe acute respiratory syndrome coronavirus 2, UniProt P0DTD1)
Observed: enzyme activity
Action: inhibitor
Concentration: 20 µM
Structure (SMILES) | inhibition
CC(C)COC(=O)c1ccc(N)cc1 | 2.14%
CC(c1cc2ccccc2s1)N(O)C(N)=O (stereo not drawn) | -1.01%
CCOC(=O)[C@H](Cc1ccccc1)NC(=O)c1cc(Cl)c(OCCN2CCN(C)CC2)c(Cl)c1O | -1.56%
Nc1nc(=S)c2ncn([C@@H]3O[C@H](CO)[C@@H](O)[C@H]3O)c2[nH]1 | -1.44%
CCCOc1ccc2c(c1)CC[C@@H]1[C@@H]2CC[C@]2(C)[C@@H](OC)CC[C@@H]12 | 0.93%
COc1cc2c(cc1OC)C(=O)C(CC1CCN(Cc3ccccc3)CC1)C2 (stereo not drawn) | -3.48%
COc1ccc2c(c1)/C(=C/c1cnc[nH]1)C(=O)N2 | 4.62%
C=C(CC)C(=O)c1ccc(OCC(=O)O)c(Cl)c1Cl | 8.63%
COc1cc2c(cc1OCCCN1CCCC1)N=C(N)C21CCC1 | 1.25%
Cc1c(-c2ccc(-c3ccccc3F)cc2)nc2ccc(F)cc2c1C(=O)O | -7.1%
CC/C(=C(/c1ccc(/C=C/C(=O)O)cc1)c1ccc2[nH]ncc2c1)c1ccc(F)cc1Cl | -1.47%
Cn1ccnc1S | 19%
CN(C)CCOC(C)(c1ccccc1)c1ccccn1 (stereo not drawn) | 13.9%
COCC[n+]1c2c(n(Cc3cnccn3)c1C)C(=O)c1ccccc1C2=O | 17.1%
CCC(=O)OCC(=O)[C@@]1(OC(=O)CC)[C@@H](C)C[C@H]2[C@@H]3CCC4=CC(=O)C=C[C@]4(C)[C@@]3(F)[C@@H](O)C[C@@]21C | 1.62%
Cc1cccc(C(=O)O)c1O | 2.32%
COc1ccc(CC2NCCc3c2[nH]c2ccc(C)cc32)c(Cl)c1OC (stereo not drawn) | 0.5%
CC(=O)c1cc2c(o1)C(=O)c1ccccc1C2=O | 5.5%

Study 2
Organism: SARS-CoV-2
Observed: cytopathic effect
Cells: Vero E6
Concentration: 10 µM
Compound | inhibition
CC1=C(/C=C/C(C)=C/C=C/C(C)=C/C(=O)O)C(C)(C)CCC1 | 1%
CC(C)C[C@@H](C=O)NC(=O)[C@H](CC(C)C)NC(=O)[C@H](CC(C)C)NC(=O)OCc1ccccc1 | -15.8% and -12.2%
Cc1ccc(-n2sc3ccccc3c2=O)cc1 | -9.9%
O=[N+]([O-])C(Br)(CO)CO | 17.6%
COc1ccc2nc(S)[nH]c2c1 | 0.27%

Study 3
Cell line: HEK-293T/ACE2
Concentration: concentration not given
Time: 16 (unit not given)
Baseline: vehicle
Compound | viability
CC1(C)O[C@@H]2C[C@H]3[C@@H]4C[C@H](F)C5=CC(=O)C=C[C@]5(C)[C@@]4(F)[C@@H](O)C[C@]3(C)[C@]2(C(=O)CO)O1 | 103%
CO[C@H]1/C=C/O[C@@]2(C)Oc3c(C)c(O)c4c(O)c(c(/C=N/N5CCN(C6CCCC6)CC5)c(O)c4c3C2=O)NC(=O)/C(C)=C\C=C\[C@H](C)[C@H](O)[C@@H](C)[C@@H](O)[C@@H](C)[C@H](OC(C)=O)[C@@H]1C | 100%
CC1CNc2c(cccc2S(=O)(=O)N[C@@H](CCCNC(=N)N)C(=O)N2CC[C@@H](C)C[C@@H]2C(=O)O)C1 (stereo partly drawn) | 108%

Study 4
Target: Interferon regulatory factor 5, full length, phosphomimetic (IRF5, Homo sapiens, UniProt Q13568-2, residues 1-514, K96S/S451D/S453D/S456D/S462D)
Method: protein-binding microarray
Molecule type: double-stranded DNA, one strand shown
Medium: in vitro
Concentration: 250 nM
Setting: 60-bp whole probe
Added: salmon DNA 0.4 mg/ml
Baseline: random background probes
Reading: higher = stronger binding
All sequences stand within: GCCTAGCAC … GTCTTGATTCGCTTGACGCTGCTG
Strand | log fluorescence [z-score]
TCATATATTCATATATAACTGTGCTAG | 0.692
GACGGTTTCGTTTTCCTGACGTGCTAG | 6.99
GTAGATTTCAGTTTCGATTAGTGCTAG | 10.1
GACGATATCGGGTTTCGAGGCGTGCTA | 3.04
TCAATTTTGTTCATCATACTGTGCTAG | 1.08
GACGGTTTCCTTTCCATGACGTGCTAG | 1.2
TCAGCTTTCCCGTCCAGACTGTGCTAG | 0.413
TTAGGATTCGACACTGGGTTAGTGCTA | 0.0102

Study 5
Target: RNA binding protein fox-1 homolog 2, RRM domain, GST-SBP tag (RBFOX2, Homo sapiens, UniProt O43251-10, residues 100-194)
Method: RNA Bind-n-Seq
Molecule type: RNA
Medium: in vitro
Concentration: 365 nM
Setting: natural RNA segment, single round, ends assumed
Baseline: no-protein control
Reading: higher = stronger binding
Residues (chain): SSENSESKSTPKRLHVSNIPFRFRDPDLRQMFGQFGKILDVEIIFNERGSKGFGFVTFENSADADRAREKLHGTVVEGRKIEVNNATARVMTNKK
Strand | RBNS enrichment (R)
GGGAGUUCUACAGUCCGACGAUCUAAAUCCUUCAGGGGCGGGGACCGCCUUGCUCGGGAAGGAAGGUGCCAUGGCCUGCACCGUGGCGGUGGAAGAGAGCAUAGCACAUCACUACAACAACCAGAUCAGGACGUGGAAUUCUCGGGUGCCAA | 0.276
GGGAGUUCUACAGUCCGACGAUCCGAAGGGCGUGUGGCCAUCGUGUCAGCAGAGAGAGUCUCUGUACACAGCCCCGUGAACCCUGAGGAGUGGAGUCAUACGCGAAGGGUGUGUGGCCAGGCUGCAGAGCUGCUGGAAUUCUCGGGUGCCAA | 0.381
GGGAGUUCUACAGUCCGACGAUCGUGAGAAUGCUGCAUCUUUCUACAUAUCUUCAUGAGAAUACUGAGAAUUGGAUUUUCCUUUUCAAAAUGCACUUUGCUUUUUUUGUAUGUUUUGUUAUGUUGAGAUGUUUUGGAAUUCUCGGGUGCCAA | 2.3
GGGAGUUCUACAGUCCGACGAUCUCUAAGUGCUGACUGGCUACGUAGUUCGGGCAAAUCCUCCAAAAGGGAAAGGGAGGAUUUGCUUAGAAGGAUGGCGCUCCCAGUGACUACUUUUUGACUUCUGUUUGUCUUGGAAUUCUCGGGUGCCAA | 0.442
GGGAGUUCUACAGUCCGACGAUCCACACCACAGCCCUAACACACCAGUUAUUCUCAGAGAAGCACUGCUCUGGAAGUUUGGCUACCUCUAGGCAUGUGAGAAGGAAGGAAAGCCUAUUGCCUUUUCUCCUUUUUGGAAUUCUCGGGUGCCAA | 0.91
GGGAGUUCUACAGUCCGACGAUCUUGGGCUCAUGUCCUGGGUUUUGGCUCUUUAAUGAUUACUCCAGGCCAGCAUUUAGUCGUUUGAGAAUUGUAGCCUGUUGUUUUCGCUGUGACUUGGGUCUCAGUGCUAGUGGAAUUCUCGGGUGCCAA | 1.32
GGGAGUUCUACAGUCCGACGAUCCAGCCUGGAGGAUUUUUAGCCGAAACAGUUGCAUGUGAAGGAUUAUCAGCCAUCUUUGCAUAUCCCUUUCACAUCUACCUUCACACAGGAAAGCUGAAUGCAUUUUACCAUGGAAUUCUCGGGUGCCAA | 1.15
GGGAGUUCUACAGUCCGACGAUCUCUGGUUCAGCAUACCUUAUAGUUCAUAUAUAACCUGUAUUAAUUGUAUAGAUUGUGCAUUAAAAGCUGUUACCAAGUUGUCAGAACAUAAGAGCGAAAACAAGGUCAUAUGGAAUUCUCGGGUGCCAA | 0.501

For quick reference, copied from above (study 1):
Structure (SMILES) | inhibition
CCOC(=O)[C@H](Cc1ccccc1)NC(=O)c1cc(Cl)c(OCCN2CCN(C)CC2)c(Cl)c1O | -1.56%
Nc1nc(=S)c2ncn([C@@H]3O[C@H](CO)[C@@H](O)[C@H]3O)c2[nH]1 | -1.44%
CCCOc1ccc2c(c1)CC[C@@H]1[C@@H]2CC[C@]2(C)[C@@H](OC)CC[C@@H]12 | 0.93%
COc1cc2c(cc1OC)C(=O)C(CC1CCN(Cc3ccccc3)CC1)C2 (stereo not drawn) | -3.48%
